Assay results of several laboratories.
Protocols differ between the studies behind these lines. Values joined by “and” are separate records of one study, mostly repeats; a detail may differ. Numbers after ± are the reported error.
BCHE: Cholinesterase (BCHE, Homo sapiens, UniProt P06276)
Chain of UniProt P06276 (whole entry, looked up): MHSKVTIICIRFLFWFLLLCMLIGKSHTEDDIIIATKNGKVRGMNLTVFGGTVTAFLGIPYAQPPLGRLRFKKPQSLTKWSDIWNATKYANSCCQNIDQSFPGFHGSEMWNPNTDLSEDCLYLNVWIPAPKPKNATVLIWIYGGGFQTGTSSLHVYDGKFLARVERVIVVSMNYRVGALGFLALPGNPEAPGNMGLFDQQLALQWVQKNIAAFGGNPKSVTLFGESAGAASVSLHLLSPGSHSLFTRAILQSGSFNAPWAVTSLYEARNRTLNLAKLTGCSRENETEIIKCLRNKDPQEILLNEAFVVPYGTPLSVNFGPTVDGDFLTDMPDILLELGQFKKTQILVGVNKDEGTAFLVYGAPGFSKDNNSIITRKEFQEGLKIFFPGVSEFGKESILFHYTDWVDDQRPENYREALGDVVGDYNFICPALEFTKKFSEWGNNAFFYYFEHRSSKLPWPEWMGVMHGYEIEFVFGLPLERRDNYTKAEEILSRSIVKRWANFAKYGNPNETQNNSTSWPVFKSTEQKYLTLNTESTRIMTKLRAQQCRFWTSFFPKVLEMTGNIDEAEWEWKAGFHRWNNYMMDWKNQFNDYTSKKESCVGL
PTGER4: Prostaglandin E2 receptor EP4 subtype (PTGER4, Homo sapiens, UniProt P35408)
Chain of UniProt P35408 (whole entry, looked up): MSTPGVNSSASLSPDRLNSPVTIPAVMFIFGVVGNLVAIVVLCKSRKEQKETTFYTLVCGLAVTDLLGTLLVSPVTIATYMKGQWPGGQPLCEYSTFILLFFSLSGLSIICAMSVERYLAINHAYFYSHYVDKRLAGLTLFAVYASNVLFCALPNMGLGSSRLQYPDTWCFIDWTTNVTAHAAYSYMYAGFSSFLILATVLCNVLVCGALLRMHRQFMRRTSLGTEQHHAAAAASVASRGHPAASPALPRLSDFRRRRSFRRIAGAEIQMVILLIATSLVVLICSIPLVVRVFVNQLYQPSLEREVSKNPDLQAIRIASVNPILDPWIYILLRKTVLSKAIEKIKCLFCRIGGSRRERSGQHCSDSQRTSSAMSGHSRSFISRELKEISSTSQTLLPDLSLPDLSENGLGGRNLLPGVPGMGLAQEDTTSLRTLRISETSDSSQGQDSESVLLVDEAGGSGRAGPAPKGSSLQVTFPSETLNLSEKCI
Chain of UniProt O95372 (whole entry, looked up): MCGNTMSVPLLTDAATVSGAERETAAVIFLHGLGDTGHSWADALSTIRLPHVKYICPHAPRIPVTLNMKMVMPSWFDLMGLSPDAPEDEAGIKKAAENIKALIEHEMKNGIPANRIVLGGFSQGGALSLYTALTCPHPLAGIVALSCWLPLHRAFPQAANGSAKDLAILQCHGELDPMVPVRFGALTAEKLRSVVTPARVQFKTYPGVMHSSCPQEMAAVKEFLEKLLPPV
Chain of UniProt Q9Y271 (whole entry, looked up): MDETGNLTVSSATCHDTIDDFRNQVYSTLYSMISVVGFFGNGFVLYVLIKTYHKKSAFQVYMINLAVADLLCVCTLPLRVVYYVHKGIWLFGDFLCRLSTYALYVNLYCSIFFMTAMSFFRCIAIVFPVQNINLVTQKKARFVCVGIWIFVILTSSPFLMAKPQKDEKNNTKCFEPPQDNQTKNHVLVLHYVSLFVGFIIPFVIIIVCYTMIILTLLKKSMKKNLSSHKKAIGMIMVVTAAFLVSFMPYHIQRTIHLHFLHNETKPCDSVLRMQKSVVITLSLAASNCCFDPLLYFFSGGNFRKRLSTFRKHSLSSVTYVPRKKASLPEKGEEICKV
Chain of UniProt P14416 (whole entry, looked up): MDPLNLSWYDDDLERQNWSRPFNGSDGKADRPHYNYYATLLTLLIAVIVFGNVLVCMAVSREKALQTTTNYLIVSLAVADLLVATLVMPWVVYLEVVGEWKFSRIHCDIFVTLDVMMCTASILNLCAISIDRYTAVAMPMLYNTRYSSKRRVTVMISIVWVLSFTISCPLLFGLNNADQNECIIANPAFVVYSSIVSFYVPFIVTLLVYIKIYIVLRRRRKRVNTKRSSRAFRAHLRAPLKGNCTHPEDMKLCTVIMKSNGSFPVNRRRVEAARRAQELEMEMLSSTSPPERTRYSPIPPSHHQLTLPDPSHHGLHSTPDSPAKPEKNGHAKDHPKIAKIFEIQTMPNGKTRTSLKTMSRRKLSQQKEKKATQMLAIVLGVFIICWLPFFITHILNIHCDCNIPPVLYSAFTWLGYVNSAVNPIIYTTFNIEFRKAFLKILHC
Chain of UniProt P22607 (whole entry, looked up): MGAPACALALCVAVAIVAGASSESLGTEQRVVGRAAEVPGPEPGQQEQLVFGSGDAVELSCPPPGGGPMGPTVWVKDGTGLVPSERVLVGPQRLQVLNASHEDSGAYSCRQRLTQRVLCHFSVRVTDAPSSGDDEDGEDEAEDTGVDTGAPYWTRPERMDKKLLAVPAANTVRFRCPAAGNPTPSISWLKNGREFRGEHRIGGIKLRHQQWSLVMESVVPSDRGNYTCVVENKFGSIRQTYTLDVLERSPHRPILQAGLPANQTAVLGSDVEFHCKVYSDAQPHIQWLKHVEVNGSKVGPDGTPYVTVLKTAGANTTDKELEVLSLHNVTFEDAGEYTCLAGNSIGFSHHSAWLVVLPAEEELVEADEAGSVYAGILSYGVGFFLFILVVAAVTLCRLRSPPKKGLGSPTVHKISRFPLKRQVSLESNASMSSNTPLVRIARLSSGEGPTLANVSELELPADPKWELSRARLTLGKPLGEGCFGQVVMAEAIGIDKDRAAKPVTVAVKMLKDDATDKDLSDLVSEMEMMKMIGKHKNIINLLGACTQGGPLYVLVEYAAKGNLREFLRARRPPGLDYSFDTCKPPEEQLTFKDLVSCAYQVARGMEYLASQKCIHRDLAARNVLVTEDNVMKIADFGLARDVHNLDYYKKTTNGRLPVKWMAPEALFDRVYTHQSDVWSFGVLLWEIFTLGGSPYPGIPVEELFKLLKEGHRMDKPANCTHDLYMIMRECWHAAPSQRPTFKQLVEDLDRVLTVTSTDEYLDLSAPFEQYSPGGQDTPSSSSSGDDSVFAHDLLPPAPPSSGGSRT
Chain of UniProt Q96RI8 (whole entry, looked up): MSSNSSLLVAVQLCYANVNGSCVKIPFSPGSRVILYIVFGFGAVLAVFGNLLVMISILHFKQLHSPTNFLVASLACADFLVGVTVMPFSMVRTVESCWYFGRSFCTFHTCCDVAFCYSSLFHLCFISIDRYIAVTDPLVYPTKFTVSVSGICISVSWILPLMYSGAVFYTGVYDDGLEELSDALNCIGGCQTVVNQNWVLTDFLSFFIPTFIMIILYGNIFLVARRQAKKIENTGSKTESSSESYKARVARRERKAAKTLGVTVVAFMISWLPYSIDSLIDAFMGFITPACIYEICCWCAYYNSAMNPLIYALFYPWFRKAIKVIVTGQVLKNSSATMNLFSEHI
Chain of UniProt Q15759 (whole entry, looked up): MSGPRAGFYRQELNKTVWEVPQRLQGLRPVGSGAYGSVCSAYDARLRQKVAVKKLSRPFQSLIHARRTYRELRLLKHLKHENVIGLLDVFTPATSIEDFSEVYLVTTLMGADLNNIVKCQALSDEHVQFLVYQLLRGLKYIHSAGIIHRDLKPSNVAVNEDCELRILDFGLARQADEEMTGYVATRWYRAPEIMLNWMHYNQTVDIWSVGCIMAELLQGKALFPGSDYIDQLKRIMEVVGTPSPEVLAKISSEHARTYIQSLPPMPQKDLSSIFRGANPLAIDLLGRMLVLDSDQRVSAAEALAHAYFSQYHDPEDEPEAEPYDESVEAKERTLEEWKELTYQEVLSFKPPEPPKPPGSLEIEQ
Chain of UniProt P46663 (whole entry, looked up): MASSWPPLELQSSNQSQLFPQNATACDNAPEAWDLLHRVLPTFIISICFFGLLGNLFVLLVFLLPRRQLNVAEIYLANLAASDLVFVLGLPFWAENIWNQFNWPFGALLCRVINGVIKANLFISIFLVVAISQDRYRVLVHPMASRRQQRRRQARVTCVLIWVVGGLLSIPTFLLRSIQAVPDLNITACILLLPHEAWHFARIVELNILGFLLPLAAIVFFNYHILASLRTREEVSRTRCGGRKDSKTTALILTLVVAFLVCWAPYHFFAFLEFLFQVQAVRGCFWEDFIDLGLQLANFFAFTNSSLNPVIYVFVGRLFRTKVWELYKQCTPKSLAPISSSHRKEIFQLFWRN

The inhibition of CN[C@]1(c2ccccc2Cl)CCCCC1=O is reported as -12% (D(2) dopamine receptor, short isoform (DRD2, Homo sapiens, UniProt P14416); radioligand binding, agonist, radioligand displacement; 30 µM).
CCCCN1[C@@H]2CC[C@H]1C[C@@H](OC(c1ccc(F)cc1)c1ccc(F)cc1)C2 gave an IC50 of 0.398 µM (Plasmodium falciparum; W2).
Oc1ccc2c3c1O[C@H]1[C@@H](O)CC[C@@]4(O)[C@@H](C2)N(CC2CCC2)CC[C@]314: “log2 fold change” 0.007 (Trace amine-associated receptor 6 (TAAR6, Homo sapiens, UniProt Q96RI8); β-arrestin recruitment, TANGO luminescence, refers to: TAAR6; concentration not given; reference: basal luminescence).
C[C@@H]1CC[C@H]2[C@@H](C)C(=O)O[C@@H]3O[C@@]4(C)CC[C@@H]1[C@]32OO4 has an IC50 of 0.03 µM (Plasmodium falciparum; Dd2).
CCC1=C[C@@H]2CN3CCc4c([nH]c5ccccc45)[C@@](C(=O)OC)(C2)[C@@H]13 has an efficacy of -81 ± 14.3% (BCHE; concentration not given, Triton).
With CN1CCN(c2cc(-c3ccncc3)c(-c3ccc4ccccc4c3)nn2)CC1 the activation was -2% (CYSLTR1 (Homo sapiens, UniProt Q9Y271); agonist, FLIPR; 12.5 µM).
The relative abundance of C[C@H]1CN(c2n[nH]c3nc(N[C@H]4CC[C@H](NS(=O)(=O)CCC(F)(F)F)CC4)ncc23)CCO1 is reported as 0.42 (MAPK11 (Homo sapiens, UniProt Q15759); competitor, Kinobeads competition; HEK293, K562, placenta extract; 0.8 µM; reference: vehicle).
COc1ccc(N2C(=O)N(c3c(C)cccc3Cl)Cc3cnc(Nc4ccc(C5CCN(C)CC5)cc4OC)nc32)nc1 gave an inhibition of 30% (FGFR3 (Homo sapiens, UniProt P22607); kinase activity; 0.5 µM).
For CN(C(=O)n1cnc(-c2ccc[n+]([O-])c2)c1)C1CCCCC1, the inhibition was 4% (PTGER4; binding, refers to: EP4; 50 µM, human, together with: [3H]prostaglandin E2).
O=C1NCc2c1c1c3ccccc3[nH]c1c1[nH]c3ccccc3c21 has an efficacy of -52.9 ± 1.44% (BCHE; concentration not given, Triton).
O=C(Nc1cnccc1Cl)N1CCN(Cc2ccc3c(c2)OC(F)(F)O3)CC1 has an inhibition of 2% (BDKRB1 (Homo sapiens, UniProt P46663); binding; 50 µM, together with: [3H][des-Arg10]kallidin).
The efficacy of Cl.c1ccc2sc(C3(N4CCCCC4)CCCCC3)cc2c1 is reported as -103 ± 11.8% (BCHE; concentration not given, Triton).
For O=C(c1ccc(Cl)cc1)N1CCN2C(=O)N(OC(=O)N3CCOc4ccccc43)C(=O)C2C1 (stereo not drawn), the peptide ratio was 1 and 1.13 (Acyl-protein thioesterase 2 (Homo sapiens, UniProt O95372); MS-based ABPP; SW-620 conditioned medium; 10 µM, 1 h, 37 °C; reference: compound over DMSO, lower = more inhibition).
O=C(Nc1cccnn1)N1CCC(=Cc2cccc(Oc3ccc(C(F)(F)F)cn3)c2)CC1 gave an inhibition of 52% (PTGER4; binding, refers to: EP4; 10 µM, human, together with: [3H]prostaglandin E2).
O[C@@](Cc1ncc(CC2(C(F)(F)F)CC2)[nH]1)(c1ccc(-n2cccn2)cc1)C(F)(F)F has an efficacy of -58.4 ± 18.9% (BCHE; concentration not given, Triton).

Some of these lines once more:
For CN(C(=O)n1cnc(-c2ccc[n+]([O-])c2)c1)C1CCCCC1, the inhibition was 4% (PTGER4; binding, refers to: EP4; 50 µM, human, together with: [3H]prostaglandin E2).
CCCCN1[C@@H]2CC[C@H]1C[C@@H](OC(c1ccc(F)cc1)c1ccc(F)cc1)C2 gave an IC50 of 0.398 µM (Plasmodium falciparum; W2).
